Experimental data collected from several papers.
Numbers after ± are the reported error.

Compound	assay	system	setting	scale	endpoint	result
N=C(N)NCCC[C@H](NC(=O)CON=C[C@H](F)[C@@H](O)[C@H](O)[C@H](O)CO)C(=O)NCC(=O)N[C@@H](CC(=O)O)C(=O)O [fluorine-18 labelled]	–	nude mice, U-87 MG xenograft	intravenous, 2 h	baseline: tumour over muscle	tissue ratio	3.5 ± 1.9
O=C([O-])CN1CCN(CC(=O)[O-])CCN(CC(=O)[O-])CCN(CC(=O)[O-])CC1.[64Cu+2]	–	healthy athymic nude mice, blood	intravenous, 15 min	–	tissue uptake	2.77 %ID/g
CCCC[C@H](NC(=O)CNC(=O)CNC(=O)CN1CCN(CC(=O)O)CCN(CC(=O)O)CCN(CC(=O)O)CC1)C(=O)N[C@H]1CC(=O)NCCCC[C@@H](C(N)=O)NC(=O)[C@H](Cc2c[nH]c3ccccc23)NC(=O)[C@H](CCCNC(=N)N)NC(=O)[C@@H](Cc2ccccc2)NC(=O)[C@H](Cc2c[nH]cn2)NC1=O [gallium-67 labelled]	–	female C57 mice, B16/F1 melanoma, brain	intravenous, 0.037 MBq, 24 h	–	tissue uptake	0.06 ± 0.03 %ID/g
O=C([O-])c1cccc(CN(CCN(Cc2cn(Cc3ccccc3)nn2)Cc2cccc(C(=O)[O-])n2)Cc2cn(Cc3ccccc3)nn2)n1.[64Cu+2]	–	healthy athymic nude mice, lung	intravenous, 1 h	–	tissue uptake	6.39 %ID/g
O=C([O-])CN1CCN(CC(=O)[O-])CCN(CC(=O)NCCc2ccc3c(c2)C2C=CCC2C(c2cc4c(cc2Br)OCO4)N3)CCN(CC(=O)[O-])CC1.[111In+3] (centres unmarked)	–	mice with Hec50 tumour xenograft, urinary bladder	2 h	–	tissue uptake	0.15 ± 0.05 %ID/g
NC12CNCCNCC(NCc3ccc(CNC(=O)CCCC(=O)NCc4ccc(-c5nncnn5)cc4)cc3)(CNCCNC1)CNCCNC2.[64Cu+2]	–	athymic nude mice SW1222 xenograft, lung	4 h post injection, 24 h accumulation interval, with: huA33-TCO pretargeting	–	tissue uptake	1.55 ± 0.45 %ID/g
CCCC[C@@H]1NC(=O)[C@@H](NC(=O)[C@H](CCC(=O)O)NC(=O)CNC(=O)CN2CCN(CC(=O)O)CCN(CC(=O)O)CCN(CC(=O)O)CC2)CCCCNC(=O)C[C@@H](C(N)=O)NC(=O)[C@H](C(C)C)NC(=O)[C@@H]2CCCN2C(=O)[C@H](CCCNC(=N)N)NC(=O)CNC(=O)[C@H](Cc2c[nH]c3ccccc23)NC(=O)[C@H](CCCNC(=N)N)NC(=O)[C@@H](Cc2ccccc2)NC(=O)[C@H](Cc2c[nH]cn2)NC(=O)[C@H](CCC(=O)O)NC1=O [gallium-67 labelled]	–	C57 mice, B16/F1 flank melanoma, pancreas	intravenous, 2 h, with: blocking peptide 10 µg	–	tissue uptake	0.09 ± 0.01 %ID/g
CN1C(=O)[C@@H](Cc2ccc(O)c(I)c2)NC(=O)CNC(=O)[C@H](Cc2ccc3ccccc3c2)NC(=O)[C@H](CCCNC(=N)N)NC(=O)[C@H]1CCCNC(=O)c1ccc(CNC(=O)CN2CCN(CC(=O)O)CCN(CC(=O)O)CCN(CC(=O)O)CC2)cc1 [lutetium-177 labelled]	measured: 177Lu radioactivity	female CB-17 SCID mice, Daudi xenograft, brain	intravenous, 0.16 nmol per mouse, 48 h	–	tissue uptake	0.007 ± 0.002 %ID/g

For quick reference, copied from above:
Compound	assay	system	setting	scale	endpoint	result
O=C([O-])CN1CCN(CC(=O)[O-])CCN(CC(=O)[O-])CCN(CC(=O)[O-])CC1.[64Cu+2]	–	healthy athymic nude mice, blood	intravenous, 15 min	–	tissue uptake	2.77 %ID/g
